Results from different studies.
Protocols differ between the studies behind these lines.
Target: Serine/threonine-protein kinase PAK 4 (PAK4, Homo sapiens, UniProt O96013)

| Structure (SMILES) | assay | conditions | scale | endpoint | result |
| --- | --- | --- | --- | --- | --- |
| Cc1ccc(C)c(-c2ccc3nc(NC(=O)C4CCCCC4)nn3c2)c1 | enzyme activity, Dundee kinase panel | 10 µM |  | remaining activity | 94% |
| O=C=[N][Ru-4]123([n]4c5ccc(O)cc5c5c6c(c7cc(F)c[n+]1c7c54)C(=O)NC6=O)[S+]1CC[S+]2CC[S+]3CC1 (centres unmarked) | enzyme activity | 100 nM, human enzyme, together with: 10 µM ATP | baseline: untreated | remaining activity | 104% |
| CC(=O)N1c2ccc(-c3ccc(CNC(=O)c4cn5cc(-c6cnc(N)nc6)nc(N6CCOCC6)c5n4)cc3)cc2CC[C@@H]1C | KINOMEscan | 10 µM |  | remaining binding | 86% |
| Cc1nc2c(F)cc(-c3nc(Nc4ccc(CNC(=O)CCCCCCC(=O)NO)cc4)ncc3F)cc2n1C(C)C | enzyme activity, inhibitor | 1 µM |  | inhibition | 75% |
| Cc1cccc(O[C@H]2CCC[C@@H](C(C)CNCc3ccncc3)C2)c1 (relative stereo) | enzyme activity, inhibitor | 1 µM |  | inhibition | -5% |
| NC(=O)C[C@H]1CCc2sc3ncnc(O[C@H]4CC[C@H](N5CCOCC5)CC4)c3c21 | enzyme activity, inhibitor | 10 µM |  | inhibition | 4% |
| C=CC(=O)N1CCc2ccc(-n3c(=O)ccc4cnc5ccc(-c6cnn(C)c6)cc5c43)cc21 | KINOMEscan | 1 µM | baseline: DMSO control | remaining binding | 100% |
| COc1ccc(C(=O)/C=C/c2ccccc2-c2c[nH]c3ccc(C#N)cc23)c(O)c1 | enzyme activity, inhibitor | 20 µM |  | inhibition | -10% |
| O=C(Cc1ccc(OCc2ccccc2)cc1)NC1(C(=O)O)CCN(C(=O)c2ccc(-c3cccc(Cl)c3)cc2)CC1 | enzyme activity, inhibitor | 10 µM |  | activity vs control | 103% |
| Nc1nc(Nc2ccccc2)sc1C(=O)c1ccccc1 | enzyme activity, inhibitor | 10 µM |  | remaining activity | 32% |
| c1ccc2c(Nc3cc(C4CCC4)[nH]n3)nc(Nc3ccc4nc[nH]c4c3)nc2c1 | enzyme activity, inhibitor | 0.25 µM |  | remaining activity | 13% |
| C=C1CCCCCCCCCC(CO)C1=O (centres unmarked) | cell-free assay, competition with immobilised ligand | 10 µM |  | remaining binding | 100% |
| Cc1c[nH]c2nccc(-c3ccc(C(=O)N[C@@H]4c5c(F)cc(C(F)F)cc5C[C@@H]4O)cn3)c12 | binding, competition with immobilised ligand | 3 µM |  | remaining binding | 17% |
| C[C@H]1CN(C(=O)c2cn(-c3ccnc(N)n3)c3cc(C#CC4(O)CCCCC4)ccc23)CCN1 | enzyme activity, inhibitor, FRET | 1 µM |  | inhibition | 100% |
| C=CC(=O)N1Cc2nc(-c3cc(-c4cc(Cl)cnc4Cl)c(F)cc3F)n(-c3ccncn3)c2C1 | cell-free assay, inhibitor | 1 µM |  | inhibition | 7.7% |
| CN1CCN(Cc2ccc(NC(=O)c3cccc(C#Cc4cnc(N)c5ncccc45)c3)cc2C(F)(F)F)CC1 | cell-free assay, competition with immobilised ligand | 0.5 µM |  | remaining binding | 100% |
| Nc1ncc(-c2cc(-c3cnn(CC(F)(F)F)c3)ncc2F)nc1C(=O)NC1CNCC(F)C1 (centres unmarked) | enzyme activity | 1 µM | baseline: DMSO control | remaining activity | 99.8% |
| COc1ccc(NC(=O)Nc2ccc3c(c2)C(=O)N(C(C)CO)CC(C)C(CN(C)Cc2ccc4c(c2)OCO4)O3)cc1 (centres unmarked) | kinase activity, KinaseProfiler | 0.03 µM, species human | baseline: control | remaining activity | 124% |
| Nc1ncc2c(n1)-c1c([nH]c3ccc(C4=CCOCC4)cc13)CCC2 | binding, competition with immobilised ligand | 1 µM |  | remaining binding | 100% |
| Cc1cccc(-c2ccc3nc(NC(=O)C4CCCO4)nn3c2)c1 (centres unmarked) | enzyme activity, Dundee kinase panel | 10 µM |  | remaining activity | 111% |
| C=CC(=O)Nc1cccc(-c2cnc3[nH]cc(C(=O)NC(C)(C)C)c3n2)c1 | enzyme activity, inhibitor | 0.1 µM |  | inhibition | 13% |
| CN1CCN(Cc2ccc(-c3ccc(CO[C@H]4CCC[C@@H]4NC(=O)c4cc(-c5cnn(C)c5)cnc4N)cc3)cc2)CC1 | enzyme activity, inhibitor | 0.1 µM |  | inhibition | 0% |
| COc1cc(Nc2nc(C)cc(-c3cnn4nc(OC)ccc34)n2)cc(C(F)(F)F)c1 | inhibitor | 1 µM | baseline: control | remaining activity | 88% |

Repeated from above:
| Structure (SMILES) | assay | conditions | scale | endpoint | result |
| --- | --- | --- | --- | --- | --- |
| Nc1nc(Nc2ccccc2)sc1C(=O)c1ccccc1 | enzyme activity, inhibitor | 10 µM |  | remaining activity | 32% |
| C=CC(=O)N1Cc2nc(-c3cc(-c4cc(Cl)cnc4Cl)c(F)cc3F)n(-c3ccncn3)c2C1 | cell-free assay, inhibitor | 1 µM |  | inhibition | 7.7% |
| CN1CCN(Cc2ccc(-c3ccc(CO[C@H]4CCC[C@@H]4NC(=O)c4cc(-c5cnn(C)c5)cnc4N)cc3)cc2)CC1 | enzyme activity, inhibitor | 0.1 µM |  | inhibition | 0% |
